Published values pooled from the literature.
Compare with care: the assays were run in different laboratories. “And” joins repeats or separate records; there may be more than shown. ± gives the spread as reported.

SMILES	assay	test system	setting	scale	endpoint	result
CCc1c2c(nc3ccc(OC(=O)N4CCC(N5CCCCC5)CC4)cc13)-c1cc3c(c(=O)n1C2)COC(=O)[C@]3(O)CC		mouse Mrp2(−/−), intestine	intraperitoneal, 50 mg/kg, 24 h		tissue concentration	12400 ± 3290 ng/g
O=C(Nc1nc2cccc(-c3ccc(CN4CCS(=O)(=O)CC4)cc3)n2n1)C1CC1	item: hypertension	human rheumatoid arthritis patients	oral, 75 mg once daily, 4 weeks, regardless of relatedness		treatment-emergent adverse events	0%
CCC(CC)[C@@H]1COC[C@H](c2ccc(C(C)(C)C)cc2)N1	shake-flask, 1-octanol/buffer		pH 7.4		logD	> 4.7
CCN1CCN(Cc2ccc(NC(=O)c3ccc(C)c(NC(=O)c4cncc(-c5cccs5)c4)c3)cc2C(F)(F)F)CC1	LC-MS/MS	C57BL/6 mouse, plasma	intraperitoneal, 30 mg/kg single dose, 4 h		plasma concentration	225 ng/mL and 564 ng/mL and 258 ng/mL
C/C(=N\c1ccc(O)cc1)c1cc2ccccc2n1C		plasma	24 h, 10 °C autosampler		processed sample stability	stable
Cc1cc(NC2CCN(C(=O)OC3CCN(C(=O)/C=C/CN(C)C)C3)CC2)n2ncc(C(C)C)c2n1 (centres unmarked)		patients with advanced solid tumours	dose not given, QD arm, any grade		patients with Dyspepsia	7%
[O]=[Co].[O]=[Co][O][Co]=[O]		rat, female, faeces, 24-h collection	oral gavage, single, 300 mg/kg (220 mg Co/kg), day 2, vehicle 0.5% HPMC	relative to: vehicle control subtracted	cobalt concentration	234 µg/g
O=C(NCCN1CCCC1)c1cc(-c2ccc(CN3CCOCC3)cc2)nc2ccc(F)cc12		human whole blood	citric acid buffer 100 mM, 1/1 v/v		freeze-thaw stability	4 cycles
Cl.[2H]C([2H])([2H])CC(=O)c1cnc(NC(=O)C2CC2)cc1Nc1cccc(-c2ncn(C([2H])([2H])[2H])n2)c1OC		human, fasted, plasma	oral, 25 mg, single dose, liquid formulation		Vz/F	148 L
C=CCN1CC(=O)N2[C@@H](Cc3ccc(O)cc3F)C(=O)N(Cc3cccc(N4CC(N5CCN(CC)CC5)C4)n3)C[C@@H]2N1C(=O)NCc1ccccc1		advanced solid tumour patients	oral, 120 mg twice daily, any grade, dose-escalation		treatment-related vomiting	25%
CN(CCC(=O)O)C(=O)c1ccc2c(c1)CC[C@@H]1[C@@H]2CC[C@]2(C)C(c3cncc(F)c3)=CC[C@@H]12		premenopausal women, endometriosis pain, serum	60 mg twice daily, visit 5, median	relative to: baseline	direct bilirubin change	0.195 mg/dL
CC(C)(C(=O)N1CCOc2c(C#N)cncc2C1)C(F)F	item: abdominal pain	human	oral, 10 mg once daily, 14 days, multiple ascending dose		subjects with adverse event	12.5%
OCc1nc2ccc(NCc3ccc(C(F)(F)F)cc3)cc2[nH]1		Balb/c mice, male, brain	oral, 10 mg/kg, 48 h		tissue concentration	not detected
CC(C)n1c(Nc2cccnc2)nc2cnc(Nc3ccc(N4CCN(C)CC4)cc3)nc21	item: creatine phosphokinase increased	healthy human, male	oral, dose not given, CTCAE grade 1-3		subjects with TEAE	11.9%
NC1(C(=O)N[C@@H](CCO)c2ccc(Cl)cc2)CCN(c2nc[nH]c3nccc2-3)CC1		metastatic CRPC patients	dose not given, grade 3 to 4, treatment-related, all doses, added: enzalutamide 160 mg daily		incidence of Pyrexia	0%
CN1CCN(c2cccc3c2CCN(C(=O)/C=C/c2c(-n4cnnn4)ccc(Cl)c2F)[C@@H]3C(=O)Nc2ccc(C(=O)O)cc2)C(=O)C1		healthy human subjects	intravenous infusion, 3 mg/h, 5 days		subjects with serious adverse event	0%
Cc1ccc([C@@H]2O[C@H](CO)[C@@H](O)[C@H](O)[C@H]2O)cc1Cc1ccc(-c2ccc(F)cc2)s1		Japanese type 2 diabetes patients	200 mg, day 1, 24 h urine collection	relative to: baseline	urinary chloride excretion change	38 mEq
CC(C)(C)c1ccc(O)c(CN(Cc2cc(C(C)(C)C)ccc2O)C2CCC(NC(N)=O)CC2)c1 (centres unmarked)		mouse brain	2000 ng/g, 3 months, 4 °C, refrigerator storage		recovery	96.34 ± 0.15%
CC[C@@H]1CN(C(=O)NCC(F)(F)F)C[C@@H]1c1cnc2cnc3[nH]ccc3n12	population PK modelling	human	oral, immediate-release formulation, outliers re-estimated		absorption lag time	0.188 h

SMILES	assay	test system	setting	scale	endpoint	result
Cc1c(-c2ccc(N3CCc4cccc(C(=O)Nc5nc6ccccc6s5)c4C3)nc2C(=O)O)cnn1CC12CC3(C)CC(C)(C1)CC(OCCNCC[C@H](O)CO)(C3)C2		anaesthetized male beagle dog	iv infusion, 0.3 mg/kg/min, 5 min		plasma concentration	730 ng/mL and 1300 ng/mL
CNC(=O)c1c(C)oc2cc(Oc3ncnc4cc(OC)c(OC)cc34)ccc12	population PK base model	human	oral		absorption rate constant ka	2.29 h⁻¹
COc1ccc(F)cc1C(=O)NCc1ccc(-c2nn([C@@H](C)C(F)(F)F)c(N)c2C(N)=O)cc1		human	intravenous, 22 µg		biliary clearance	0.24 L/h
CN(C)CCCN1c2ccccc2CCc2cc(O)ccc21	reverse phase LC, C18	acetonitrile gradient, 0.1% formic acid	converted from retention time	relative to: Valko CHI standards	chromatographic hydrophobicity index	51.1
C=CC(=O)Nc1cc(Nc2nccc(-c3cn(C4CC4)c4ccccc34)n2)c(OC)cc1N(C)CCN(C)C		BALB/c nude mice, LU0387 xenograft, blood	oral, 40 mg/kg		MCH	15.3 ± 0.175 pg
Cc1nc2cccc(OCC(C)(C)C(=O)NC(C)C)c2c(N)c1C(=O)O		Sprague-Dawley rat, male, plasma	oral, 30 mg/kg		Tmax	0.38 h
Cc1cc(-c2nccc3c2ccn3CC(=O)Nc2ccc(-c3cnccn3)cn2)ccn1		human	20 mg once daily, multiple ascending dose		general or administration site disorders	22.2%
C/C=C/C[C@@H](C)C(=O)[C@H]1C(=O)N[C@@H](C(C)C)C(=O)N(C)CC(=O)N(C)[C@@H](CC(C)C)C(=O)N[C@@H](C(C)C)C(=O)N(C)[C@@H](CC(C)C)C(=O)N[C@@H](C)C(=O)N[C@H](C)C(=O)N(C)[C@@H](CC(C)C)C(=O)N(C)[C@@H](CC(C)C)C(=O)N(C)[C@@H](C(C)C)C(=O)N1C		Sprague Dawley rat, plasma	intravenous infusion, 0.09 mg/h/kg, 4 h, 4.5 h constant infusion		total plasma concentration	404 ng/mL
N=C(N)NS(=O)(=O)c1ccc(N/C=C2\C(=O)Nc3ccccc32)cc1		octanol/buffer	67 µM, pH 7.4		logD	1.71
C=CCn1c(=O)c2cnc(Nc3ccc(N4CCN(C)CC4)cc3)nc2n1-c1ccc2c(n1)[C@@](O)(CC)CC2		OVCAR-3, female NOD/SCID mouse xenograft, plasma	oral, 60 mg/kg once daily		AUC(0-24)	21100 ng·h/mL
Cc1c([C@H]2COC[C@@H](c3ccc(C(C)(C)C)cc3)N2)cnn1-c1ccccc1	shake-flask, 1-octanol/buffer		pH 7.4		logD	> 4.7
Cc1ccnc(NS(=O)(=O)c2ccc(NC(=O)c3cncc(Br)c3)cc2)n1		octanol/buffer	pH 7.4		logD	1.16
Cc1cc(Nc2cc3ncccc3c(N[C@@H]3C[C@H]4CC[C@@H](C3)N4CCC#N)n2)n[nH]1		healthy human	oral, 10 mg single dose, 2 weeks		subjects with epistaxis	0%
C[C@H]1OC[C@H](c2ccc(-c3ccccn3)cc2)N[C@@H]1c1ccc(F)cc1Cl	shake-flask, 1-octanol/buffer		pH 7.4		logD	> 4.7
CCC(=O)N(CCC(c1ccc2c(c1)OCO2)c1ccccc1OC)Cc1ccccc1 (centres unmarked)		female athymic nude mouse, blood	i.p., 60 mg/kg twice daily, 14 days, group mean		CREA	0.193 mg/dL
C[C@H]1CNCCCN1S(=O)(=O)c1cccc2cncc(F)c12		healthy adult men	ocular, 1 drop per eye twice daily, 8 days, adverse event		subjects with eye irritation	0%
Cc1nc2c(F)cc(-c3nc(Nc4ccc(CN5CCNCC5)cn4)ncc3F)cc2n1C(C)C		human, liver	population PK model estimate		intrinsic clearance	259 L/h
CC[C@H](C)[C@H](NC(=O)[C@H](CO)NC(=O)[C@H](CCCNC(=N)N)NC(C)=O)C(=O)N[C@H]1CSSC[C@@H](C(=O)N[C@H](C(N)=O)[C@@H](C)O)NC(=O)[C@H](CCCNC(=N)N)NC(=O)[C@H](Cc2c[nH]cn2)NC(=O)[C@H](Cc2cccc3ccccc23)NC(=O)CNC(=O)[C@H](Cc2c[nH]c3ccccc23)NC(=O)[C@H](CC(=O)O)NC(=O)[C@H](CCC(N)=O)NC(=O)[C@H](Cc2cccc3ccccc23)NC(=O)[C@H](C(C)C)NC1=O	isocratic RP-HPLC, C18	32% acetonitrile, phosphate pH 7.4, 1% TFA	25 °C		log retention factor	0.85
CC[C@H](C)[C@H](NC(=O)[C@H](Cc1ccccc1)NC(=O)[C@H](CCC(=O)O)NC(=O)[C@H](CCCCNC(=O)COCCOCCNC(=O)COCCOCCNC(=O)CC[C@H](NC(=O)CCCCCCCCCCCCCCCCC(=O)O)C(=O)O)NC(=O)[C@H](C)NC(=O)[C@H](C)NC(=O)[C@H](CCC(N)=O)NC(=O)CNC(=O)[C@H](CCC(=O)O)NC(=O)[C@H](CC(C)C)NC(=O)[C@H](Cc1ccc(O)cc1)NC(=O)[C@H](CO)NC(=O)[C@H](CO)NC(=O)[C@@H](NC(=O)[C@H](CC(=O)O)NC(=O)[C@H](CO)NC(=O)[C@@H](NC(=O)[C@H](Cc1ccccc1)NC(=O)[C@@H](NC(=O)CNC(=O)[C@H](CCC(=O)O)NC(=O)C(C)(C)NC(=O)[C@@H](N)Cc1cnc[nH]1)[C@@H](C)O)[C@@H](C)O)C(C)C)C(=O)N[C@@H](C)C(=O)N[C@@H](Cc1c[nH]c2ccccc12)C(=O)N[C@@H](CC(C)C)C(=O)N[C@H](C(=O)N[C@@H](CCCNC(=N)N)C(=O)NCC(=O)N[C@@H](CCCNC(=N)N)C(=O)NCC(=O)O)C(C)C		Caucasian subjects	1.0 mg		subjects with mild AEs	50%

SMILES	assay	test system	setting	scale	endpoint	result
CC[C@@H]([C@H](C)O)n1ncn(-c2ccc(N3CCN(c4ccc(OC[C@@H]5CO[C@@](Cn6cncn6)(c6ccc(F)cc6F)C5)cc4)CC3)cc2)c1=O		rat plasma	2 ng/mL, 3 h, room temperature	relative to: nominal concentration	stability relative error	-7.4%
c1ccc(CN2CCCN3CCN(Cc4ccccc4)CCCN(CC2)Cc2cccc(n2)C3)cc1		64Cu complex in rat plasma	0.5 h, 37 °C		intact complex	97%
C=CC(=O)N1CCC[C@@H](n2nc(-c3ccc(Oc4ccccc4)cc3)c3c(N)ncnc32)C1		PBS	100 µM, 23 h, pH 7.45, 37 °C, added: cysteine 10 mM		cysteine adduct formation	99%
C[C@@H](Oc1ccc(S(C)(=O)=O)cc1C(=O)N1C[C@@H]2C[C@]2(c2cc(C(F)(F)F)on2)C1)C(F)(F)F	LC-MS/MS	young human subjects, plasma	oral, 75 mg twice daily, single dose		half-life	44 h
C[C@H]1OC[C@@H](C2CCCCC2)N[C@@H]1c1cccc(Cl)c1	shake-flask, 1-octanol/buffer		pH 7.4		logD	> 4.7
CC(Sc1nc2ccccc2[nH]1)C(=O)Nc1ccc(S(N)(=O)=O)cc1 (centres unmarked)		octanol/buffer	pH 7.4		logD	2.47
CC1(C)CN(CCCCC(=O)N[C@@H](CCC(=O)O)C(=O)N[C@@H](CCC(=O)O)C(=O)N[C@H](CCCCNC(=O)CCCCCCC(=O)NCCCC[C@H](NC(=O)N[C@@H](CCC(=O)O)C(=O)O)C(=O)O)C(=O)O)CC[N]2CC(C)(C)[S][Tc]2(=[O])[S]1 (some centres unmarked) [technetium-99m labelled]	radio-HPLC	saline	4 h, 25 °C		intact radioligand	93.2%
Cc1cc(C)c(CNC(=O)c2cc(Cl)c3c(c2C)O[C@@](C)([C@H]2CC[C@H](N(C)C)CC2)O3)c(=O)[nH]1		relapsed/refractory NHL patients	oral, 200 mg once daily, onset after cycle 1 day 1		grade ≥3 adverse event Anemia	25%
Nc1ccc2c(c1)S(=O)(=O)C=C2		PBS	50 µM, 24 h, pH 7.4, 37 °C, added: equimolar thiol		conversion to thiol conjugate	30 to 40%
CC(C)(C)c1ccc([C@@H]2COC[C@H](C3CCCC3)N2)cc1	shake-flask, 1-octanol/buffer		pH 7.4		logD	> 4.7
CCN1/C(=C/C(C)=O)Sc2ccc(F)cc21		cynomolgus monkey	oral, 10 mg/kg, 4 h post-dose	relative to: pre-dose	heart rate change	91.3 ± 23.6%
CCC(C)n1ncn(-c2ccc(N3CCN(c4ccc(OCC5COC(Cn6cncn6)(c6ccc(Cl)cc6Cl)O5)cc4)CC3)cc2)c1=O (centres unmarked)		healthy human volunteers	oral, 200 mg, event Proteinuria, continued dosing		adverse events	27%
CCOc1c([C@H](C)n2nc(C)c3c(N)ncnc32)cc(Cl)c(F)c1[C@@H]1CNC(=O)C1	item: 450 < QTcF ≤ 480 ms	previously treated B-cell malignancy	oral, 5 mg once daily, baseline QTcF ≤450 ms		share of patients	0%
CCOc1c([C@H](C)n2nc(C)c3c(N)ncnc32)cc(Cl)c(F)c1[C@@H]1CNC(=O)C1		rat plasma	800 ng/mL, 4 h, 10 °C, autosampler	relative to: nominal concentration	stability relative error	11.4%
CNc1ccc(-c2nc3ccc(O)cc3s2)cc1 [carbon-11 labelled]	ex vivo biodistribution	APP/PS1 mouse, AD model, spleen	intravenous, 30 min		SUV	0.232 ± 0.104
O=C1NCCc2nc(OCc3cccc(F)c3)ccc21	item: tail pinch	Sprague-Dawley rat male	oral, 100 mg/kg, 1 h	direction not given	Irwin test score	0
Cc1ccc(C(=O)N(CCCN)C(c2nc3snc(C)c3c(=O)n2Cc2ccccc2)C(C)C)cc1 (centres unmarked)	mucosal inflammation grade ≥3 (CTCAE)	human patients	intravenous, 2 mg/day		patients with adverse event	0%
CN1CCN(c2cccc(-c3ccc4ncnc(Nc5ccc(Cl)c(C(F)(F)F)c5)c4c3)c2)CC1		human liver microsomes			CLint	< 3 µL/min/mg

Excerpt of the above:
SMILES	assay	test system	setting	scale	endpoint	result
CN(C)CCCN1c2ccccc2CCc2cc(O)ccc21	reverse phase LC, C18	acetonitrile gradient, 0.1% formic acid	converted from retention time	relative to: Valko CHI standards	chromatographic hydrophobicity index	51.1
Cc1c([C@H]2COC[C@@H](c3ccc(C(C)(C)C)cc3)N2)cnn1-c1ccccc1	shake-flask, 1-octanol/buffer		pH 7.4		logD	> 4.7
CCOc1c([C@H](C)n2nc(C)c3c(N)ncnc32)cc(Cl)c(F)c1[C@@H]1CNC(=O)C1		rat plasma	800 ng/mL, 4 h, 10 °C, autosampler	relative to: nominal concentration	stability relative error	11.4%
CC[C@@H]1CN(C(=O)NCC(F)(F)F)C[C@@H]1c1cnc2cnc3[nH]ccc3n12	population PK modelling	human	oral, immediate-release formulation, outliers re-estimated		absorption lag time	0.188 h
Cc1ccnc(NS(=O)(=O)c2ccc(NC(=O)c3cncc(Br)c3)cc2)n1		octanol/buffer	pH 7.4		logD	1.16
